Results pooled from the literature.
Numbered parts are unrelated; each lists some results of a single study.

Set 1
Target: Ras GTPase-activating protein-binding protein 1, RRM domain (G3BP1, Homo sapiens, UniProt Q13283)
Sequence of UniProt Q13283 (whole entry, looked up): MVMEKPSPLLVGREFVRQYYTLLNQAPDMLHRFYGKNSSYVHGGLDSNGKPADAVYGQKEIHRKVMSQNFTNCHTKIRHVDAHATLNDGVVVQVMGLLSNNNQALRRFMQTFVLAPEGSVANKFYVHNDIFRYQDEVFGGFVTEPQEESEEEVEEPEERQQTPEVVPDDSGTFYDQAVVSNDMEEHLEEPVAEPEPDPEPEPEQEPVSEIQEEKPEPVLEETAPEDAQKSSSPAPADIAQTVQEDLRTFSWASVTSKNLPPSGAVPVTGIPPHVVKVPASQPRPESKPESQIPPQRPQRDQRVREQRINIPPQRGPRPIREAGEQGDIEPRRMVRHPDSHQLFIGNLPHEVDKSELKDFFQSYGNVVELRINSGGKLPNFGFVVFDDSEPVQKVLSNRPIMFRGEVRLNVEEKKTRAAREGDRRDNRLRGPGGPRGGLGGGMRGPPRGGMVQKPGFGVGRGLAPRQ
Technique: RNA Bind-n-Seq
Form: RNA
Medium: in vitro
Concentration: 1 µM
Setting: whole 134-nt RNA, ends assumed
Added: 150 mM KCl
Relative to: input library
Direction: higher = stronger binding
Shared flanks, not repeated: GGGAGUUCUACAGUCCGACGAUC … UGGAAUUCUCGGGUGUCAAGG
| Sequence | log2 enrichment |
| --- | --- |
| AAGUCCUGUGCUACACAUCGUAUGUACCGAAUCGGAAAAGGGAAAAGGGAAAAGGGGAAAGUAUUAUGUUACGCCGUUCGGAUCUGCACU | 0.0402 |
| AGUCCUGUGCUACACAUCGUAUGUACCGAAUCGGGGUUUUUGGGGUUUGGGGUGGGGAAAGUAUUAUGUUACGCCGUUCGGAUCUGCACU | 1.18 |
| UGGGAGGUGGACUUUGUUUAUUUUUUUAGCUCAUUUCCAGGGGUGGGAAUUUUUUUUUAAUAUGUGUCAUGAAUAAAGUUGUUUUUGAAA | 1.78 |
| GCAGGAAGUAAAAACAAAUGGAAAUGCUUCGGAUAGUGGCAGGGGUGGGGGUUGCUAAGGAAAGGGUAAAAUGGGAGUGGGUAAAGAGUU | 1.27 |
| AGUCCUGUGCUACACAUCGUAUGUACCGAAUCGGGGUUUUGGGUUUUGGUUUUGGGGAAAGUAUUAUGUUACGCCGUUCGGAUCUGCACU | -0.0739 |
| AGUCCUGUGCUACACAUCGUAUGUACCGAAUCGGGAAAAAGGGAGGGUUUUUUUGGGAAAGUAUUAUGUUACGCCGUUCGGAUCUGCACU | 0.425 |
| GUCCUGUGCUACACAUCGUAUGUACCGAAUCGGCCCCCGGGCCCCCGGGGCCCCCGGGAAAGUAUUAUGUUACGCCGUUCGGAUCUGCAC | -0.348 |
| CAAGUCCUGUGCUACACAUCGUAUGUACCGAAUCGGAAAGGGAAAGGGGAAAGGGGAAAGUAUUAUGUUACGCCGUUCGGAUCUGCACUU | -0.13 |
| ACCAUGCAGGUGGGCAUCUUUGGGAAGUGGGGCAAGGGGGGGAUAUGGAGGGGGGUAACACUUUGGGAACAGGUGGUCCCAGGUCGUUUC | 0.821 |
| ACCAUGCAGGUGGGCAUCUUUGGGAAGUGGGGCAAGGGGGGGAUAGGGAGGGGGGUAACACUUUGGGAACAGGUGGUCUCAGGUCGUUUC | 0.788 |
| CAAGUCCUGUGCUACACAUCGUAUGUACCGAAUCGGAGGUUUUUGGUUUUUUUGGAAAGUAUUAUGUUACGCCGUUCGGAUCUGCACUUC | -0.276 |
| UAACUUUAGAGGAGGAUCUGAUGGAUAUGGCAGUGGACGUGGAUUCGGGGAUGGCUAUAAUGGGUAUGGAGGAGGACCUGGAGGUGGCAA | -0.633 |
| UCCUGUGCUACACAUCGUAUGUACCGAAUCGGCCCCCCGGCCCCCCGGGGCCCCCCGGGAAAGUAUUAUGUUACGCCGUUCGGAUCUGCA | -0.389 |
| AGUCCUGUGCUACACAUCGUAUGUACCGAAUCGGUUUUUGGUUUUUUUGGUUUUUGGAAAGUAUUAUGUUACGCCGUUCGGAUCUGCACU | -0.146 |

Set 2
Target: Histone acetyltransferase KAT6A, winged helix 1, GST fusion (KAT6A, Homo sapiens, UniProt Q92794, residues 1-85)
Technique: protein binding microarray
Form: double-stranded DNA, one strand shown
Medium: in vitro
Concentration: not given
Setting: 8-mer, flanks averaged, mean of 2 arrays, mostly near background
Relative to: not given
Direction: higher = stronger binding
Residues (chain): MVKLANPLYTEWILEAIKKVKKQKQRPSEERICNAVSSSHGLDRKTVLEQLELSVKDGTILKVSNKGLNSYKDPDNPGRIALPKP
| Sequence | E-score |
| --- | --- |
| TACTGGAA | -0.17 |
| GGGTGGTA | -0.0553 |
| CGAACTGA | -0.095 |
| AGCTTTTA | 0.00468 |
| CCAATTCA | -0.205 |
| ACGTTGAG | -0.11 |
| AACACTAC | -0.0253 |
| CAGAGGGC | 0.0703 |
| AACCGTGA | 0.0966 |
| ACCGGCGA | 0.26 |
| CCAAAACG | -0.198 |
| GAAAAATA | -0.104 |
| GCGTCTAA | 0.124 |
| CCGCGAGC | 0.388 |
| AGGATTAG | -0.201 |
| GAGCGTGA | 0.189 |
| CTTTGCCA | -0.15 |
| CGGACTTC | 0.199 |
| AGCAATGC | -0.207 |
| CCCGAACG | 0.227 |
| AAGTGATG | -0.237 |
| AAGCTAAC | -0.163 |
| AACCGAGT | -0.0174 |

Set 3
Target: Prothrombin, mature alpha-thrombin (F2, Homo sapiens, UniProt P00734)
Technique: aptamer microarray, sandwich
Form: DNA with 2'F-ANA
Medium: in vitro
Concentration: 200 nM
Setting: whole 15-mer aptamer, many near background
Added: Cy3 exosite-II aptamer, 400 nM
Direction: higher = stronger binding
Sequence: GGTTGGTGTGGTTGG
| Modification | mean fluorescence intensity [a.u.] |
| --- | --- |
| 2'F-ANA at 2 3 4 6 7 8 12 13 14 15 | 360 |
| 2'F-ANA at 6 7 8 10 13 | 148 |
| 2'F-ANA at 1 2 4 6 7 8 11 14 | 54.2 |
| 2'F-ANA at 1 4 8 9 13 14 15 | 47.9 |
| 2'F-ANA at 1 6 7 10 11 13 14 15 | 54.1 |
| 2'F-ANA at 1 3 11 13 14 | 99.6 |
| 2'F-ANA at 2 3 9 12 13 14 | 400 |
| 2'F-ANA at 1 4 7 9 10 11 12 14 | 61.5 |
| 2'F-ANA at 2 3 5 7 10 | 56.3 |
| 2'F-ANA at 1 3 10 11 12 13 14 | 60.1 |
| 2'F-ANA at 1 8 10 11 12 13 14 | 156 |
| 2'F-ANA at 2 4 8 9 10 15 | 99 |
| 2'F-ANA at 1 9 10 12 15 | 74.3 |
| 2'F-ANA at 1 4 7 8 12 | 393 |
| 2'F-ANA at 4 5 6 7 8 10 11 12 15 | 47.7 |
| 2'F-ANA at 3 5 6 9 10 11 | 61.3 |
| 2'F-ANA at 2 3 4 5 6 9 10 11 13 14 15 | 66.1 |
| 2'F-ANA at 1 4 7 8 9 | 132 |
| 2'F-ANA at 1 6 13 14 | 57.3 |
| 2'F-ANA at 2 7 8 9 10 11 14 15 | 83.6 |
| 2'F-ANA at 1 2 3 4 7 13 | 124 |
| 2'F-ANA at 1 3 5 6 7 8 9 11 14 | 61.4 |
| 2'F-ANA at 2 4 5 6 9 11 12 13 15 | 74.8 |
| 2'F-ANA at 1 3 4 7 9 12 13 15 | 284 |
| 2'F-ANA at 1 3 4 6 8 9 11 12 14 | 73.1 |

Set 4
Target: RNA binding protein fox-1 homolog 2, RRM domain, GST-SBP tag (RBFOX2, Homo sapiens, UniProt O43251-10, residues 100-194)
Technique: RNA Bind-n-Seq
Form: RNA
Medium: in vitro
Concentration: 365 nM
Setting: natural RNA segment, single round, ends assumed
Relative to: no-protein control
Direction: higher = stronger binding
Shared flanks, not repeated: GGGAGUUCUACAGUCCGACGAUC … UGGAAUUCUCGGGUGCCAA
| Sequence | RBNS enrichment (R) |
| --- | --- |
| UUUUUCUUUUUAUUUUCGAAGGCUUUGUUUUGGUUUCUUAGGUUAAGAUGCUCUCGAGCGUUGAGCAGGCACAGCUCUGUCGAGGUCCCUGUCCCCCACCUGUGGUUCUG | 0.565 |
| CGCACAUUCGGCUUGGUGAAAUCCUUCUCUAAAGCCUCUUUUUGUAUUUUUAUAACUAAACAGAGGAAGUCUUCAGAAGACCUCGCUUUAAAACAAAUUUGUGCAAACAC | 0.526 |
| UUCUUCAUGGGAAAUGUUAAAAGUUUAGCAUGUAACAUGUAAAUAUGUUGUACUUAAUGUUGAUCUCAAAACUUUAUUAUCUAGAUAUAAGAAAAAUUACUUUUUACUUC | 1.03 |
| GAAAGGUGACCUCAGAUGCACCUGUUUUCAGCCUGUGCUUUUGUUCUAGUAAAGACAUUUAAACCAAUGGAGUUGCUCCUUUUUGAAGUUAUUGUCACAGAAUCAGGAGU | 0.381 |
| AAACCCUUUCCCCUCUCAAGCCAGGAGUCUCAUCUGCUACAUUUUUUUUAACCACCUCUGAUUUCCAACUUAGUGAUGUGGUAAUGAAAUUCGUUUGUCUUCAAUAUAGU | 1.48 |
| CACUGGCUCUGGCGAUGAGUCAUUGUGCAAUUAGAAUCAUAUCUUAUGAUUUAUUUUCUGUCAUUAAAAAAAUGUACAUUAAAAAAAAAAGUCACCAGGUAGCUUCCAUG | 0.493 |
| GCGUUAAACGGAGGUGGCAGAAAUUUGUCAAGAAGGCCUUAUCCAUUUCGAUUGUGUGACAGAUUGAAAUUUAUUGUUUACAUUGGGGAAUGUAUCUCAAAUUUUUAAAU | 0.63 |
| AGUUUGGAAAAAUCAUGGUCAACAUUCCCAUUUUCAUAGAUCACAAUGUAAAUCACUAUAAUUACAAAUUGGUGUUAAAUCCUUUGGGUUAUCCACUGCCUUAAAAUUAU | 0.571 |
| ACCUGAGGUGCAUAGCAUAUUCCCACAUUCCAUUUGGUAGCAAUAUGCGGUCUGAAUGCAUGCAUUCAUGAGUCCAUGUGGCCAAGUCAGCCUGUGUGCUACUGAACUGU | 1.37 |
| GGGGGGAGCACAUAUGCAUAUAUAUAUAUGAGAAUAGCCAACUUCUACAGAAAAAAGACAAGUGGAAGUGGUUUACCAAUACCUAGCAUGGUACAAUCAGAGCUCCGUGG | 0.974 |
| AAAGAAUGAUAGGCUUGUCAGAGCCUAUAGCCAGAACUCAGAAAAAAUUCAAAUGCACUUAUGUUCUCAUUCUAUGGCCAUUGUGUUGCCUCUGUUACUGUUUGUAUUGA | 0.699 |
| UACAGUUUGUGAGGACCUUUGCACUUUGCCAUCUGAUGUCGUACCUCGGUUCACUGUUUGUUUUCGAAUGCCUUGUUUUCAUAGAGCCCUAUUCUCUCAGACGGUGGAAU | 0.742 |

A few entries again (set 2):
| Sequence | E-score |
| --- | --- |
| GGGTGGTA | -0.0553 |
| CGAACTGA | -0.095 |
| AGCTTTTA | 0.00468 |
| CCAATTCA | -0.205 |
